Results pooled from the literature.
Each numbered part is a random draw from the data of one study; scales do not carry over between parts. Substitutions count along the parent as printed.

Series 1 — target: CREBRF, bZIP domain (human); method: DHFR protein complementation; matrix: yeast; reference: wild-type JUN-FOS pair; direction: higher = stronger binding
Notes: single substitutions, most at no-binding floor
Starting sequence: JUN, bZIP domain (human); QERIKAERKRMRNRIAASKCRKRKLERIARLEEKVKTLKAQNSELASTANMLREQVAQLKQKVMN; partner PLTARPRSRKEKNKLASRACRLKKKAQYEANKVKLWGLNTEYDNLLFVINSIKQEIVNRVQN
Variant | binding fitness [natural log]
S47G | -1.39
L31M | -1.54
T37N | -1.49
E44V | -1.39
R53M | -1.56
K36H | -1.5
N42H | -1.32
M51L | -1.23
M51A | -1.41
R53S | -1.45
L59H | -1.16
L45Y | -1.53
A46L | -1.46

Series 2 — method: universal PBM; molecule type: double-stranded DNA, one strand shown; matrix: in vitro; concentration: not given; direction: higher = stronger binding
Target: Sal-like protein 4, full length isoform B (SALL4, Homo sapiens, UniProt Q9UJQ4-2, residues 1-616)
Notes: 8-mer, flanks averaged, mean of replicates
Sequence | E-score
AAACGCAT | 0.0798
AACAGGTC | -0.11
AGAATTCA | 0.104
AAGGATGG | 0.0257
ACCCCGAT | -0.161
GAGTTGGC | -0.238
CCCGTTAG | -0.194
CCGCACCG | -0.304
ATTCCATC | 0.144
CAACAAAG | 0.0336

Series 3 — method: protein binding microarray; molecule type: double-stranded DNA, one strand shown; matrix: in vitro; concentration: not given; reference: not given; direction: higher = stronger binding
Target: Histone acetyltransferase KAT6A, winged helix 2, GST fusion (KAT6A, Homo sapiens, UniProt Q92794, residues 85-181)
Notes: 8-mer, flanks averaged, mean of 2 arrays, mostly near background
Residues (chain): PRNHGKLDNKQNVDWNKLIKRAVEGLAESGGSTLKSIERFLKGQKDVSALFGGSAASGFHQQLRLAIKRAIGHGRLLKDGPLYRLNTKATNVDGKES
Sequence | E-score
ATCTGACA | -0.0595
CCAAGTTA | -0.135
ACAAGGTA | -0.0533
CGGGGAAC | 0.224
CTGTACGA | -0.072
GGAGCGCA | 0.0414
CACCCTGC | 0.187
GATAACAC | -0.152
ATTGCGTC | -0.00728
AGACAGCG | 0.0603
CTTTACGC | -0.0483
AGCGCACG | -0.0109
ATTAGTAC | -0.133

Further values, each from its own experiment
Molecule | target | assay | test system | setting | scale | endpoint | result
PhoQ, residues 284 288 289 292 302 303 SLANIV | PhoP, residues 12 14 15 18 19 LHATL (Escherichia coli, UniProt P23836) | Sort-seq, refers to: YFP reporter | E. coli | PhoQ-PhoP variant library, added: 10 µM Mg2+ | reference: high Mg2+ state, higher = stronger signaling | fold induction | 8.14

A few entries again (series 3):
Sequence | E-score
CGGGGAAC | 0.224
CTGTACGA | -0.072
GGAGCGCA | 0.0414
CACCCTGC | 0.187
